# Published values collected from several papers.
# Each line is one published result; not all experiments were run side by side.
# ERBB2: Receptor tyrosine-protein kinase erbB-2 (ERBB2, Homo sapiens, UniProt P04626)
# Chain of UniProt P08510 (whole entry, unmodified, looked up): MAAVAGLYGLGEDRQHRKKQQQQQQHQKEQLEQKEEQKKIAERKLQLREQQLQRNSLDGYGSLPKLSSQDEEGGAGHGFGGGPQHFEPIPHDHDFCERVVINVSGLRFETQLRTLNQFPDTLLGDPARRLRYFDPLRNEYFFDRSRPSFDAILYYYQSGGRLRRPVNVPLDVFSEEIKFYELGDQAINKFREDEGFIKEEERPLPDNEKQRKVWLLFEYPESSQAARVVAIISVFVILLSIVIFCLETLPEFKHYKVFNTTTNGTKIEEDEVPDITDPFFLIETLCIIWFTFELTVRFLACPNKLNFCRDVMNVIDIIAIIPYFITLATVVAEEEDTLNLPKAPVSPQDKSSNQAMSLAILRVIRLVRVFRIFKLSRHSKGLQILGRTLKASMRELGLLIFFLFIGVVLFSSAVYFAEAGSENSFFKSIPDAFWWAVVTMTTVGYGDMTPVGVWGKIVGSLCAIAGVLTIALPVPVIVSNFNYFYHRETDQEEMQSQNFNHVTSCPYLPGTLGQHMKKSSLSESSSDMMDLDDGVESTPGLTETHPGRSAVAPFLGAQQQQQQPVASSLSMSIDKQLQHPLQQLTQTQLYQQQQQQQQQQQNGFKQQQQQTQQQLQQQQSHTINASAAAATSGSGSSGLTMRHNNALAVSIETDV
# Chain of UniProt P09619 (whole entry, looked up): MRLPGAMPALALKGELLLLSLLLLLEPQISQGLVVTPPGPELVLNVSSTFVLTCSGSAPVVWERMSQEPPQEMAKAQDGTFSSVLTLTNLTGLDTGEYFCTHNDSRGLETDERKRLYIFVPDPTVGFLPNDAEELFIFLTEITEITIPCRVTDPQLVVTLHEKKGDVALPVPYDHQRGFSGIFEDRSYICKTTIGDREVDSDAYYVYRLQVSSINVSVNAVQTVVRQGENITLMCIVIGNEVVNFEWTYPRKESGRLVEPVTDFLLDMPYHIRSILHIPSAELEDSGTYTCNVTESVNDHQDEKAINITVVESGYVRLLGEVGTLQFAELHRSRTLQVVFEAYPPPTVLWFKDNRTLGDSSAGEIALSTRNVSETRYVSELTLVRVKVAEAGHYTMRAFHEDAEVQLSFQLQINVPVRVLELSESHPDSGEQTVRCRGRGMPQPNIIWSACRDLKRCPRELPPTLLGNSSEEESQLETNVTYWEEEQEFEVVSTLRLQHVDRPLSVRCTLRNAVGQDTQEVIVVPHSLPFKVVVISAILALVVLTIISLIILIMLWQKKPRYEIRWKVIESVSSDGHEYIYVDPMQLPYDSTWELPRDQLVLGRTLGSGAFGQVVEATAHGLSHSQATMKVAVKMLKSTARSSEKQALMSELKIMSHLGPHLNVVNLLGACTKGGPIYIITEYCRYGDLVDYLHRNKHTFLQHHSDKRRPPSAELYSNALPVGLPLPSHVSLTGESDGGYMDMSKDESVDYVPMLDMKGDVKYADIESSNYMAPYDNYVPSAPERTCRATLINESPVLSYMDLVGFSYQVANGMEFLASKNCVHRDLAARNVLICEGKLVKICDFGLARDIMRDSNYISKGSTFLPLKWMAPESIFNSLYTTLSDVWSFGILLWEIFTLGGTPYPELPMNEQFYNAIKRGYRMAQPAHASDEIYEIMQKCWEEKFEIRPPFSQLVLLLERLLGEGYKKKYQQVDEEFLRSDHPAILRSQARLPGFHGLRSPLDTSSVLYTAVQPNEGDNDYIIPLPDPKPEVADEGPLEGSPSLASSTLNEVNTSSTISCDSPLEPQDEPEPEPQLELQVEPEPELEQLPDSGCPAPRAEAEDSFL
# Chain of UniProt P0DMV8 (whole entry, looked up): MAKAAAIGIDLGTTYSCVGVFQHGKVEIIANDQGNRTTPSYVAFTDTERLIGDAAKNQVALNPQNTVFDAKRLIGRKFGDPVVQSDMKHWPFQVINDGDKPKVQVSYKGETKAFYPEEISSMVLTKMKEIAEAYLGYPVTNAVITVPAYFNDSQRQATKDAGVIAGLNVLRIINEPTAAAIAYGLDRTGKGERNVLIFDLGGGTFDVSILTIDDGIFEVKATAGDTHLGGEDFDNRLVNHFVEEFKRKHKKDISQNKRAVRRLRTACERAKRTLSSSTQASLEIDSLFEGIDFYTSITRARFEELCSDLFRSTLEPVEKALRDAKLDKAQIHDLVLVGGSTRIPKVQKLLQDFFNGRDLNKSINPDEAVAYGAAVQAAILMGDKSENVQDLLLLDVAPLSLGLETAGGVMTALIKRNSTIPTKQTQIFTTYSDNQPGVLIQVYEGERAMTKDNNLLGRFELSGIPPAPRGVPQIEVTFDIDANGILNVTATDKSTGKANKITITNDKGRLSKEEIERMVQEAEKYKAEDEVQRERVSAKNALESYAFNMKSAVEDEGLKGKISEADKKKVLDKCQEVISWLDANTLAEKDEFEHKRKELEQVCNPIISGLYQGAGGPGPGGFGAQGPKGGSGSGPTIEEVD
# Chain of UniProt Q07011 (whole entry, looked up): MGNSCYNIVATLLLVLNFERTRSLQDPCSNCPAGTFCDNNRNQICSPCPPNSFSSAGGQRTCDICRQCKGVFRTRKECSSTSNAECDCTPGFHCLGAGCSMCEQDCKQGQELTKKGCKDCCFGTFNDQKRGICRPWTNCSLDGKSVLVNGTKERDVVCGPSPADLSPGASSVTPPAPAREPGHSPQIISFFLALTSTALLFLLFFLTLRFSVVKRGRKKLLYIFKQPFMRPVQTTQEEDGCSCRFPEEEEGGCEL
# Chain of UniProt P61981 (whole entry, looked up): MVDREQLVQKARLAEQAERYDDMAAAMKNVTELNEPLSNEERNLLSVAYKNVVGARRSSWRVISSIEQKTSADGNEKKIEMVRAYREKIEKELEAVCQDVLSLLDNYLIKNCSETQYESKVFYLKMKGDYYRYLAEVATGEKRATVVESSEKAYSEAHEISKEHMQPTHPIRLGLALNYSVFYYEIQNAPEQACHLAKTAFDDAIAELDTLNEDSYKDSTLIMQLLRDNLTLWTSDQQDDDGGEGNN
# Chain of UniProt P23458 (whole entry, looked up): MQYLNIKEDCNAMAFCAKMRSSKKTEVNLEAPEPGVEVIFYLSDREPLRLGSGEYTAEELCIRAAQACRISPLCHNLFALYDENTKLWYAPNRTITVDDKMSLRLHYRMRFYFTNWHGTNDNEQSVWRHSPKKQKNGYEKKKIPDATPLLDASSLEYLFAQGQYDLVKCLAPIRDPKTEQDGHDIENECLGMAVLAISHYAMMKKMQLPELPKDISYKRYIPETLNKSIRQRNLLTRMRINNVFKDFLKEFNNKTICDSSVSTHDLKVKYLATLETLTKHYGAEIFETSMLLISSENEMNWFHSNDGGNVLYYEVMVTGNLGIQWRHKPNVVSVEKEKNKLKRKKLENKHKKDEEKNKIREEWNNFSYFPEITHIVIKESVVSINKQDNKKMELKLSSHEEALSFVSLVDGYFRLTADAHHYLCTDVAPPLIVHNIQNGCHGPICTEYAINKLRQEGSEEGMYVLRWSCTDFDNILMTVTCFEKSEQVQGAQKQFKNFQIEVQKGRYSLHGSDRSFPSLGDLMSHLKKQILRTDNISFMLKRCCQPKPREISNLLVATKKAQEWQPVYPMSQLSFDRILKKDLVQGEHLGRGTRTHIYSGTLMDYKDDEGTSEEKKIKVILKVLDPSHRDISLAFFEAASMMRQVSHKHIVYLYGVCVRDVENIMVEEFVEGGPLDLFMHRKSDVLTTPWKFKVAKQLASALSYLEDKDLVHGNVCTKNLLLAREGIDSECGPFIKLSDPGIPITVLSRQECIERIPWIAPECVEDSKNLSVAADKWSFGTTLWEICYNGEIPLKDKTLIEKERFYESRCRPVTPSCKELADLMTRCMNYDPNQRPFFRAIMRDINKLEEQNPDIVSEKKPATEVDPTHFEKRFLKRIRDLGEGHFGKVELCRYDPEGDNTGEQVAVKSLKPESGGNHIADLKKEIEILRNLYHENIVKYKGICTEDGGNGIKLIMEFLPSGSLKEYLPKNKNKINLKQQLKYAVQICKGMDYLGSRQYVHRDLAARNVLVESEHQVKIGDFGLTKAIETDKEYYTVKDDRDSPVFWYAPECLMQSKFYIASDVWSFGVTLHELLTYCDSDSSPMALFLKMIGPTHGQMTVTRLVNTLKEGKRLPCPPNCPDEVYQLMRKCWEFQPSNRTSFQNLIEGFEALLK
# Chain of UniProt Q96SW2 (whole entry, looked up): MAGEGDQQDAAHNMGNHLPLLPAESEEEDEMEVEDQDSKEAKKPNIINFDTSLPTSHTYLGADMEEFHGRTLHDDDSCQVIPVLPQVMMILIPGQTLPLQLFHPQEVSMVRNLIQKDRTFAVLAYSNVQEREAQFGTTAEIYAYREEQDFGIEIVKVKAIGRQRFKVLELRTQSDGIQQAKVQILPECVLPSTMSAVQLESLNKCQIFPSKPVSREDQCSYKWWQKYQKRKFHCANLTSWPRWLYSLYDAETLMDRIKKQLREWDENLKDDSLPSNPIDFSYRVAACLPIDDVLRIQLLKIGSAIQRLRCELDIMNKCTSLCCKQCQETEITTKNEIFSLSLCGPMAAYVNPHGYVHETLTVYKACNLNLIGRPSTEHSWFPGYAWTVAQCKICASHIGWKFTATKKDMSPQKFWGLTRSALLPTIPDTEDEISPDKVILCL
# Chain of UniProt O43639 (whole entry, looked up): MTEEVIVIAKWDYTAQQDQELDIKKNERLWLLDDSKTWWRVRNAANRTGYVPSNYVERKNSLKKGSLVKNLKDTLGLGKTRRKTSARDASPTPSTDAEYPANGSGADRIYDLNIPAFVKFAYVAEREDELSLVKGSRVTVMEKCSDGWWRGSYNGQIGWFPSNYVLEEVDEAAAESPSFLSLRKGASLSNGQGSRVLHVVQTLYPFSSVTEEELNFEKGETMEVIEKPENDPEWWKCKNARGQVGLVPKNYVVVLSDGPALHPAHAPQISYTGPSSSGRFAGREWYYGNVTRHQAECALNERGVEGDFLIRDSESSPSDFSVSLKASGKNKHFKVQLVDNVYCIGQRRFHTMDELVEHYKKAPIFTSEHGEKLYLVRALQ
Structure (SMILES),target,assay,system,setting,Kd [µM]
O=C(N[C@@H]1c2ccccc2C[C@H]1N1CCCC1)c1ccc(-c2ccnc3[nH]ccc23)nc1,"Tyrosine-protein kinase JAK1, JH1 (JAK1, Homo sapiens, UniProt P23458)","binding, competition with immobilised ligand",,,0.79
C=CC[C@H]1OC(=O)CCNC(=O)[C@H](C)N(C)C(=O)[C@H]([C@@H](C)CC)N(C)C(=O)[C@H]([C@@H](C)CC)NC(=O)[C@@H]2[C@@H](C)CCN2C1=O,"Platelet-derived growth factor receptor beta, extracellular domain (PDGFRB, Homo sapiens, UniProt P09619)",SPR,,"22 °C, extracellular domain immobilised",7.7
CCCC[C@@H]1NC(=O)[C@H](Cc2ccc(O)cc2)NC(=O)[C@@H]2CCCN2C(=O)[C@H](CC(=O)O)NC(=O)[C@H](C)NC(=O)[C@H](Cc2ccccc2)NC(=O)[C@@H]2CSCCC(=O)N3CN(CN(C3)C(=O)CCSC[C@@H](C(=O)N[C@@H](CNC(=O)CCOCCOCCOCCN(CCOCCOCCOCCn3cc(CCC(=O)NCCC(=O)N[C@H]4CSCCC(=O)N5CN6CN(C5)C(=O)CCSC[C@H](NC(=O)[C@@H](CC(=O)O)NC(=O)[C@H](Cc5cccc7ccccc57)NC(=O)[C@@H]5CCCN5C4=O)C(=O)N[C@@H](CCSC)C(=O)N[C@@H](CCCCNC(=N)N)C(=O)N[C@@H](CC(=O)O)C(=O)N[C@@H](Cc4c[nH]c5ccccc45)C(=O)N[C@@H](CO)C(=O)N[C@@H]([C@@H](C)O)C(=O)N4CCC[C@H]4C(=O)N4C[C@H](O)C[C@H]4C(=O)N[C@@H](Cc4c[nH]c5ccccc45)C(=O)N[C@H](C(N)=O)CSCCC6=O)nn3)CCOCCOCCOCCn3cc(CCC(=O)NCCC(=O)N[C@H]4CSCCC(=O)N5CN6CN(C5)C(=O)CCSC[C@H](NC(=O)[C@@H](CC(=O)O)NC(=O)[C@H](Cc5cccc7ccccc57)NC(=O)[C@@H]5CCCN5C4=O)C(=O)N[C@@H](CCSC)C(=O)N[C@@H](CCCCNC(=N)N)C(=O)N[C@@H](CC(=O)O)C(=O)N[C@@H](Cc4c[nH]c5ccccc45)C(=O)N[C@@H](CO)C(=O)N[C@@H]([C@@H](C)O)C(=O)N4CCC[C@H]4C(=O)N4C[C@H](O)C[C@H]4C(=O)N[C@@H](Cc4c[nH]c5ccccc45)C(=O)N[C@H](C(N)=O)CSCCC6=O)nn3)C(N)=O)NC1=O)C(=O)CCSC[C@H](NC(C)=O)C(=O)N[C@@H](CC(C)(C)C)C(=O)N1CCC[C@H]1C(=O)N[C@@H](CCC(=O)O)C(=O)N[C@H](C)C(=O)N1CCC[C@H]1C(=O)N[C@@H](Cc1ccc(O)cc1)C(=O)N2,"Tumor necrosis factor receptor superfamily member 9 (Homo sapiens, UniProt Q07011)","binding, SPR",,,0.014
CC(C)C[C@H](NC(=O)CNC(=O)[C@@H](NC(=O)[C@@H](NC(=O)CNC(=O)[C@H](CCCNC(=N)N)NC(=O)[C@H](CCC(N)=O)NC(=O)CN)C(C)C)C(C)C)C(=O)N1C[C@H](O)C[C@H]1C(=O)NCC(=O)N[C@@H](CCC(N)=O)C(=O)N[C@@H](CCCNC(=N)N)C(=O)NCC(=O)N[C@@H](CCC(=O)O)C(=O)N[C@@H](CCCNC(=N)N)C(=O)NCC(=O)N[C@@H](Cc1ccccc1)C(=O)N1C[C@H](O)C[C@H]1C(=O)NCC(=O)N[C@@H](CC(C)C)C(=O)N1C[C@H](O)C[C@H]1C(=O)NCC(=O)N1CCC[C@H]1C(=O)N[C@@H](CO)C(=O)NCC(=O)N[C@@H](CCC(=O)O)C(=O)N1C[C@H](O)C[C@H]1C(=O)NCC(=O)N[C@@H](CCCCN)C(=O)N[C@@H](CCC(N)=O)C(=O)NCC(=O)N1CCC[C@H]1C(=O)N[C@@H](CO)C(=O)NCC(=O)N[C@@H](C)C(=O)N[C@@H](CO)C(=O)NCC(=O)N[C@@H](CCC(=O)O)C(=O)N[C@@H](CCCNC(=N)N)C(=O)O,"Fibronectin (FN1, Homo sapiens, UniProt P02751)","binding, ITC",,pH 7.2,38
CSCC[C@H](NC(=O)CNC(=O)[C@H](CCCNC(=N)N)NC(=O)[C@H](C)NC(=O)[C@@H](NC(=O)[C@H](CCC(N)=O)NC(=O)[C@H](Cc1ccc(OP(=O)(O)O)cc1)NC(=O)[C@H](C)NC(=O)[C@H](CS)NC(=O)[C@H](CO)NC(=O)[C@@H](NC(=O)[C@H](CC(C)C)NC(=O)[C@H](CC(=O)O)NC(=O)[C@H](CCCCN)NC(=O)[C@H](CO)NC(=O)[C@H](CO)NC(=O)c1ccc2c(c1)C(=O)OC21c2ccc(N(C)C)cc2Oc2cc(N(C)C)ccc21)C(C)C)C(C)C)C(=O)N[C@@H](CCC(=O)O)C(=O)N[C@@H](CC(=O)O)C(=O)O,"Cytoplasmic protein NCK2, SH2 domain (NCK2, Homo sapiens, UniProt O43639)",binding,,,0.727
CC(C)c1nc2c(cc1C(N)=O)CCCC2,"Beta-lactamase (ampC, Escherichia coli K-12, UniProt P00811)",,,,2500
CC[C@H](C)[C@H](NC(=O)[C@H](CCCCN)NC(=O)[C@H](C)NC(=O)[C@H](CCCNC(=N)N)NC(=O)[C@H](CCCCN)NC(=O)[C@H](CCC(N)=O)NC(=O)[C@H](CCC(N)=O)NC(=O)[C@H](CC(N)=O)NC(=O)[C@@H](NC(=O)[C@H](CC(C)C)NC(=O)[C@H](CC(N)=O)NC(=O)[C@@H]1CCCN1C(=O)[C@H](CC(=O)O)NC(=O)[C@H](CC(C)C)NC(=O)[C@H](CS)NC(=O)[C@H](C)NC(=O)[C@H](CCC(=O)O)NC(=O)[C@H](Cc1c[nH]c2ccccc12)NC(=O)[C@H](Cc1ccc(O)cc1)NC(=O)[C@H](CCCNC(=N)N)NC(=O)[C@H](CC(N)=O)NC(=O)[C@H](CCCNC(=N)N)NC(=O)[C@H](CCSC)NC(=O)[C@H](CCC(=O)O)NC(=O)[C@H](CCCCN)NC(=O)[C@H](CO)NC(=O)[C@H](Cc1ccccc1)NC(C)=O)[C@@H](C)O)C(=O)N[C@@H](CCCNC(=N)N)C(=O)N[C@@H](CO)C(=O)N[C@H](C(=O)N[C@@H](Cc1ccc(O)cc1)C(=O)N[C@@H](CCC(=O)O)C(=O)N[C@@H](CCC(=O)O)C(=O)NCC(=O)N[C@@H](CCC(=O)O)C(N)=O)[C@@H](C)CC,ERBB2,"binding, SPR",,,0.096
C=CC1CN(Cc2ccccn2)C(=O)C2CCCC1N2S(=O)(=NC)c1cc(Cl)cc(Cl)c1 (centres unmarked),"uncharacterized protein, residues 23-253 (Pseudomonas aeruginosa, UniProt Q9HYX8)","binding, competitive fluorescence polarization",,"30 min, protein 40 nM, with: fluorescent tracer 1 nM",> 40
CSCC[C@@H]1NC(=O)[C@H]([C@@H](C)O)NC(=O)[C@H](CC(C)C)NC(=O)[C@H](Cc2c[nH]c3ccccc23)NC(=O)CNC(=O)[C@H](C)NC(=O)[C@H](CO)NC(=O)[C@@H](NC(=O)[C@H](CCCCN)NC(=O)[C@H](CC(=O)O)NC(=O)[C@@H](N)CO)CSCCC(=O)N2CN3CN(C2)C(=O)CCSC[C@H](NC1=O)C(=O)N[C@@H](CCC(N)=O)C(=O)N[C@@H](CCCCN)C(=O)N[C@@H](CC(C)C)C(=O)N[C@@H](Cc1c[nH]cn1)C(=O)N[C@@H](CC(C)C)C(=O)N[C@H](C(=O)N[C@@H](C)C(N)=O)CSCCC3=O,"Programmed cell death 1 ligand 1 (CD274, Homo sapiens, UniProt Q9NZQ7)","binding, SPR",,,0.0347
CC[C@H](C)[C@H](NC(=O)[C@H](CCCCNC(=O)CN(CCNC(=O)CN(CCNC(=O)CN(CCNC(=O)CN(CCNC(=O)[C@H](CCCNC(=N)N)NC(C)=O)C(=O)Cn1ccc(N)nc1=O)C(=O)Cn1cnc2c(=O)[nH]c(N)nc21)C(=O)Cn1cnc2c(=O)[nH]c(N)nc21)C(=O)Cn1ccc(N)nc1=O)NC(=O)[C@H](C)NC(=O)[C@H](CCCNC(=N)N)NC(=O)[C@H](CCCCN)NC(=O)[C@H](CCC(N)=O)NC(=O)[C@H](CCC(N)=O)NC(=O)[C@H](CC(=O)O)NC(=O)[C@@H](NC(=O)[C@H](CC(C)C)NC(=O)[C@H](CC(N)=O)NC(=O)[C@@H]1CCCN1C(=O)[C@H](CC(=O)O)NC(=O)[C@H](CC(C)C)NC(=O)[C@H](C)NC(=O)[C@H](CS)NC(=O)[C@H](CCCC(=O)NCCN(CC(=O)NCCN(CC(=O)NCCN(CC(=O)NCCN(CC(N)=O)C(=O)Cn1cnc2c(=O)[nH]c(N)nc21)C(=O)Cn1ccc(N)nc1=O)C(=O)Cn1ccc(N)nc1=O)C(=O)Cn1cnc2c(=O)[nH]c(N)nc21)NC(=O)[C@H](Cc1c[nH]c2ccccc12)NC(=O)[C@H](Cc1ccc(O)cc1)NC(=O)[C@H](CCCNC(=N)N)NC(=O)[C@H](CC(N)=O)NC(=O)[C@H](CCCNC(=N)N)NC(=O)[C@H](CC1CCC1)NC(=O)[C@H](CCC(=O)O)NC(=O)[C@H](CCCCN)NC(=O)[C@H](CO)NC(C)=O)[C@@H](C)O)C(=O)N[C@@H](CCCNC(=N)N)C(=O)N[C@@H](CO)C(=O)N[C@H](C(=O)N[C@@H](Cc1ccc(O)cc1)C(=O)N[C@@H](CCC(=O)O)C(=O)N[C@@H](CCC(=O)O)C(N)=O)[C@@H](C)CC,ERBB2,"binding, SPR",,,0.0049
CC(C)C[C@H](NC(=O)[C@H](CCCNC(=N)N)NC(=O)[C@H](CC(C)C)NC(=O)[C@H](CO)NC(=S)Nc1ccc2c(c1)C(=O)OC21c2ccc(O)cc2Oc2cc(O)ccc21)C(=O)N[C@@H](CCCCN)C(=O)N[C@@H](CS)C(=O)NCC(=O)N[C@@H](CCP(=O)(O)O)C(=O)NCC(=O)N1CCC[C@H]1C(=O)N[C@H](C(=O)N[C@@H](Cc1c[nH]c2ccccc12)C(=O)N[C@@H](CC(C)C)C(=O)N[C@H](C(=O)N1CCC[C@H]1C(=O)N[C@@H](CCCNC(=N)N)C(=O)O)C(C)C)C(C)C,"14-3-3 protein gamma (YWHAG, Homo sapiens, UniProt P61981)","binding, fluorescence anisotropy",,"pH 7.5, FITC-labelled phosphopeptide titration",22.2
CC[C@H](C)[C@@H]1NC(=O)[C@@H](C)NC(=O)[C@H](CCC(=O)N[C@@H](CCCCN)C(N)=O)NC(=O)[C@@H](C)NC(=O)[C@@H](C)NC(=O)[C@H](Cc2c[nH]c3ccccc23)NC(=O)[C@H](Cc2ccc(O)cc2)NC(=O)[C@H](CCCNC(=N)N)NC(=O)[C@H](Cc2ccc(F)cc2)NC1=O,"Bifunctional glutamate/proline--tRNA ligase (EPRS1, Homo sapiens, UniProt P07814)",binding,,,0.6
CC(=O)N[C@@H](CO)C(=O)N[C@@H](Cc1ccccc1)C(=O)N[C@@H](CCC(=O)O)C(=O)N[C@@H](Cc1ccccc1Cl)C(=O)N1CC[C@@H]2C=C[C@H]3CC[C@@H](C(=O)N4CC[C@@H]5C=C[C@H]6CC[C@@H](C(=O)N[C@H](C(=O)N[C@@H](CCC(=O)O)C(=O)N[C@@H](CC(=O)O)C(=O)N[C@@H](CCC(=O)O)C(=O)N[C@@H](CC(C)C)C(N)=O)[C@@H](C)O)N6C(=O)[C@H]54)N3C(=O)[C@H]21,"Vasodilator-stimulated phosphoprotein (VASP, Homo sapiens, UniProt P50552)","binding, fluorescence",,,0.3
C(#C[P+](c1ccccc1)(c1ccccc1)c1ccccc1)c1ccccc1,"Heat shock 70 kDa protein 1A, ADP-bound (HSPA1A, Homo sapiens, UniProt P0DMV8)",ITC,3% DMSO,"pH 5.5, 25 °C, ADP-bound full-length residues 1-641",~3.8
CC(=O)c1cnc2ccc(-c3cc(Cl)c(O)c(Cl)c3)nc2c1N[C@H]1CC[C@H](CN(C)C)CC1,"Probable receptor-like protein kinase At4g39110 (Arabidopsis thaliana, UniProt Q9T020)","binding, SPR",,,> 100
CC(C)C[C@H](NC(=O)[C@H](C)NC(=O)[C@H](CCC(=O)O)NC(=O)[C@@H](N)C(C)C)C(=O)N[C@@H](CC(C)C)C(=O)N[C@H]1CC(=O)NC1=O,"Protein cereblon, with DDB1 (CRBN, Homo sapiens, UniProt Q96SW2)",binding,,,0.0345
CSCC[C@@H](N)C(=O)N[C@H](C)C(=O)N[C@H](C)C(=O)N[C@@H](C(=O)N[C@H](C)C(=O)NCC(=O)N[C@H](CC(C)C)C(=O)N[C@H](Cc1ccc(O)cc1)C(=O)NCC(=O)N[C@H](CC(C)C)C(=O)NCC(=O)N[C@H](CCC(=O)O)C(=O)N[C@H](CC(=O)O)C(=O)N[C@H](CCCNC(=N)N)C(=O)N[C@H](CCC(N)=O)C(=O)N[C@H](Cc1c[nH]cn1)C(=O)N[C@H](CCCNC(=N)N)C(=O)N[C@H](CCCCN)C(=O)N[C@H](CCCCN)C(=O)N[C@H](CCC(N)=O)C(N)=O)C(C)C,"Sh, DEL6-46 (Drosophila melanogaster, UniProt P08510)","ion current, blocker, inside-out patch clamp",Xenopus oocytes,"range over 10 µM, pH 7.0, 22–24 °C, at 0 mV",11.1

# Some of these lines once more:
Structure (SMILES),target,assay,system,setting,Kd [µM]
CSCC[C@H](NC(=O)CNC(=O)[C@H](CCCNC(=N)N)NC(=O)[C@H](C)NC(=O)[C@@H](NC(=O)[C@H](CCC(N)=O)NC(=O)[C@H](Cc1ccc(OP(=O)(O)O)cc1)NC(=O)[C@H](C)NC(=O)[C@H](CS)NC(=O)[C@H](CO)NC(=O)[C@@H](NC(=O)[C@H](CC(C)C)NC(=O)[C@H](CC(=O)O)NC(=O)[C@H](CCCCN)NC(=O)[C@H](CO)NC(=O)[C@H](CO)NC(=O)c1ccc2c(c1)C(=O)OC21c2ccc(N(C)C)cc2Oc2cc(N(C)C)ccc21)C(C)C)C(C)C)C(=O)N[C@@H](CCC(=O)O)C(=O)N[C@@H](CC(=O)O)C(=O)O,"Cytoplasmic protein NCK2, SH2 domain (NCK2, Homo sapiens, UniProt O43639)",binding,,,0.727
